# Results gathered from unrelated publications.
# Parts stem from different laboratories: compare values within a part only.

# Block 1
# Target: Interferon regulatory factor 5, full length, phosphomimetic (IRF5, Homo sapiens, UniProt Q13568-2, residues 1-514, K96S/S451D/S453D/S456D/S462D)
# Method: protein-binding microarray
# Form: double-stranded DNA, one strand shown
# Sample: in vitro
# Tested at: 250 nM
# Setting: 60-bp whole probe
# With: salmon DNA 0.4 mg/ml
# Baseline: random background probes
# Direction: higher = stronger binding
# All sequences stand within: GCCTAGCAC … GTCTTGATTCGCTTGACGCTGCTG
Oligonucleotide,log fluorescence
CATATATTCACTATAGTGTGGTGCTAG,0.626 z-score
TCATTTTACTTTCTATGACTGTGCTAG,4.88 z-score
TTAGGTATCGGGTAGCGGTTAGTGCTA,4.01 z-score
GACGAACTGAGTTTCGTGACGTGCTAG,2.09 z-score
GTCCCTATCTCCTCACAGACCGTGCTA,0.121 z-score
GACGGACTGAGTATCGAGACGTGCTAG,1.3 z-score
GACGATCTCATACTGGAGACGTGCTAG,-0.279 z-score
TCAACTCTGTCCCTCTGACTGTGCTAG,-0.223 z-score
TTAGGACTGGGGAGTGGGTTAGTGCTA,-0.393 z-score
TCACATTCTGAATTCGAACTGTGCTAG,0.619 z-score
TTGGGTCTCGGTATCGGTTAGTGCTAG,5.29 z-score
GAAGGACTGGACACTGGGGACGTGCTA,-0.566 z-score
GACGATATCGGGTTTCGAAACGTGCTA,5.09 z-score
TCAATTTTTTTTCTAACACTGTGCTAG,0.889 z-score
TATGTTGTCCAGGCTGGTCTCGTGCTA,-0.159 z-score
GACGGAATCCTACTGCTGACGTGCTAG,-0.362 z-score
TTAGGTCTCCTTTTCCTTTTGTGCTAG,0.407 z-score
TTAGGTATCGGACTGGGTTTGTGCTAG,1.5 z-score
TTAGGTTTCGGCACTGGGTTAGTGCTA,6.23 z-score
TTAGAACTGGGGTATCGTTTAGTGCTA,0.818 z-score
ACTTGTATTTGTCCCTATTTGTGCTAG,0.484 z-score
TTAGGTATCGGACTAGGTTAGTGCTAG,1.81 z-score
TTATTTATAAATTATCTTTAAGTGCTA,1.01 z-score
CACTCTCTGCTTGTATCTGGGTGCTAG,0.598 z-score
GACAATTTCGGGTATCGAGACGTGCTA,7.38 z-score

# Block 2
# Target: RING finger protein unkempt homolog, zinc fingers 1-6, SBP tag (UNK, Homo sapiens, UniProt Q9C0B0, residues 30-357)
# Chain of UniProt Q9C0B0 (30-357, looked up): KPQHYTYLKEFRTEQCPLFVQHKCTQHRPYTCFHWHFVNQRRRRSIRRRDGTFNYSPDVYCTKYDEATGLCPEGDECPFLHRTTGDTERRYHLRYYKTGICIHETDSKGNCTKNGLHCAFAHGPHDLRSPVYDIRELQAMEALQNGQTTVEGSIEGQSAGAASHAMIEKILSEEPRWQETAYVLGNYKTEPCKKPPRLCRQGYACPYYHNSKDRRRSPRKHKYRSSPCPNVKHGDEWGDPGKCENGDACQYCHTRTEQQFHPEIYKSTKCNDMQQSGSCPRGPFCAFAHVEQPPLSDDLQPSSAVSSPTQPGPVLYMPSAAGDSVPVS
# Method: RNA Bind-n-Seq
# Form: RNA
# Sample: in vitro
# Tested at: 100 nM
# Setting: RNA with constant flanks, vertebrate orthologous sites, ends assumed
# Baseline: input RNA pool
# Direction: higher = stronger binding
# All sequences stand within: GGGAGUUCUACAGUCCGACGAUC … CAACAGAGGAUUGAGCAUCA
Oligonucleotide,bound/input enrichment
UCCUGUGUAGAAAAUAAACUGGACUCCCCCUUCUGCUCCUCCCAGAAGCAAAAGACCAAAUAUAUUUCCUAUUCAUCAGAUUAUACUCUUCUGGUUUUGUUUUAUAUUAUUUUUACAUGC,1.17 ratio
AGCAGCUCAAGGAUUCCGGACUGGUUUUACAAAUGUUCCAAACAGAUAUGGAACUAAUGCGAAAGGGCAACCCAGACCACAAUAAACUCCAUUUUUCAUUAUUUAUUGUACUGAAGGCUA,0.425 ratio
CUGGGCUGGGACAGGUUUUUUUUUUUUUUUUUAAGUCUUGAAACUUAAACUCUGUGCUUGUAGGAGACUGUAACCUUUUGUCUUUUUUUUUUUUUUUUUAAACAAACAACCUCCACCUCC,2.17 ratio
ACCUCCAAUAGGCUAAUUCAGGGAAAGGAAACAGGCUUCAGGGAAUAUAAAUUAAUAUAGUAGUAGUCAUGAAGAAUAACUUUGAUAUAACUGAUUGGGGGAGUGAUGGCAACUUGUGAA,1.23 ratio
CCAUUCUUCCACGUAGGGUUGGCCUCGGAUCUAUAGGAUUUAUGACAAAUGUAUUAUAUCUAAUUGCAUUGAGUUAUUUUUUAUGGGUUUGUGAAUAGAGAUGGCAUCUCCUACAUUAAA,0.465 ratio
CCUACAAUAAUGAAAACUUACCGGAAUUUUUUUAUUUUUCAUCUUCCCCUUAGACCUACUUAGUCUUUUUCCCCCAGGCAGAUCAUUCUGAGUGUGCGAGUGUGUGUGCACAUGUUACAG,2.33 ratio
AUGUAGUUCGUUUUUAAUUUCAAGCAAAAUCUUAUUGUACUUGAAUGUGCCCUGUUUUGUUAGCACACCUAGACUUGCUGUAACUGUACUCAUGUCCCAGUAUGUACGUUCUUUCUAUGA,0.917 ratio
UACCUUGCUGUAUGGUAUGAUAAACAUUCUUACAUAUUUAUCAGAUGUUGAUAAACUGUUAUCCCUUAACCACUUUUUAUAUGUUUCCUAUUUUUUGAAAUUCCAGUGUAUCUGCCAUAA,0.869 ratio
CUUCCUCCAACUUCAGUUUUUCAGGUUGUAGCUGAUCCAUCUUUUAUUCUUCCUCUCCUCUCACUGUUGCUUUCCUUUCCUUUCUGUCUGCCCAACAUCAGACACAUGCAUUCAUCCCCU,1.1 ratio
GCAAUGAAAAAGCAGCCCUUCUCCCAGCCCCCUUUUCACUAGGAGAUACAAACAUUACCGUAGAAGAGCAAUUAAACUCAAUAAAUUUAUCUUUUCAGGAUGAUCCAGACUCCAGUACCA,1.55 ratio
AGAUUUGGACCUUGGAGCCGAACUAGAGACUAGCAAAAGUAAAGCAGACUUGUAAAAUUAUAGUCGUAUGCAGCUGCACAACAAAAGCACCACCACUAGCAGCUGUGUUAAAGGAUUUAU,0.436 ratio

# Block 3
# Target: RNA binding protein fox-1 homolog 2, RRM domain, GST-SBP tag (RBFOX2, Homo sapiens, UniProt O43251-10, residues 100-194)
# Method: RNA Bind-n-Seq
# Form: RNA
# Sample: in vitro
# Tested at: 365 nM
# Setting: natural RNA segment, single round, ends assumed
# Baseline: no-protein control
# Direction: higher = stronger binding
# All sequences stand within: GGGAGUUCUACAGUCCGACGAUC … UGGAAUUCUCGGGUGCCAA
# Residues (chain): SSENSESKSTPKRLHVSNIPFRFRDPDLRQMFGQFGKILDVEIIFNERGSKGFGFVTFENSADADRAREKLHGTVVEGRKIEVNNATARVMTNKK
Oligonucleotide,RBNS enrichment (R)
AGGGAGGGGCCGAUGCUGCCACCACCCAGCCUUCUCUUUAUUUUCAGUGCUUUUUGUUUGGCCUCCCUGCCCCCAUGUUUUUCUGGCUGGGAGCUCUUGGUUACCCCCUU,0.664
UUUUGUUGGUUUUGAAACACUCCCCCAGUUCUAGCUGUACCCCAGAAAAACAAAUACUUUCUUGAUCAAUAUGUAAAGCCAGGAAGUUGGUAAGAGUGACUGAGUAGCCU,0.324
UCUGCUGCCUCUCAGCCUCUGCUGGGGCUUCCAGCUGGGUACAUGGCUGCUUGGCCGUUUGGGGCGGUUCUUCCUCCUAGGUUCUGCAAUCCAGGCUCCAGCACCCCUCU,0.391
CAGGCUUUUAUUUCCAGGUAACCUAUCUGUGGAAGACCUAAUUCUGAAUAGAGUAAUAGAUAUUACUGGAAACUGAUUUGUUUUUUUUUUCCUAUUAUACUCUGCUUUAU,0.354
GAGGGCUUACUGAUACAAUGAAAUGAGUUUCAUGACUUUUUUUUUUUUUAAACACUUUUUGAAAUAGAGUGUGCUGUGUUUAAAACCAAAAAUAUGCAUGUUGUCUCUGA,10.6
UCUGUGGAGCUGUAGUUCUGAUGGAAGGAGCUGUGCCCACCCUGUACACUUGGCUUCCCCCUGCAACUGCAGGGCCGCUUCUGGGGCCUGGACCACCAUGGGGAGGAAGA,0.326
AACCUGUGCCAGUCUAUAGCCUCUGCCUCCCCAAGCAGAGCUCAAGCCAAACGCUUCUGUCCUCUUUCCUUCUGCAUUAACCCUUUGCUGAUCCUCAGGGGCCACUCCCC,0.328
AAGCUCCUGUCAGACUCUCAGAAGGGUCUGUGGGUGUUGUAUAUUAGGCAAACAGGGGAAAGCUUAGAGGUCCUUCUAUAUGUGUUAAUAAGCUGUUUCUAAGUGUUUAA,0.352
GGCAUUUUUUUUUAAUCACUGUUUAUUUUUCUGUUUGCGGCCCAGGAAGCAGUGGGAGGUGGUGGCAGAUAUGCUUUGCAUAUGGAUUGUUAUGUUUUUAUUUGGGCAAG,0.831
GGGUUGCUGGGUACCCCAUGCCCUGAGGGUUCCAGCACUGCUGCCAAGUGGCCUUGUCCCAGCUCCCCCUGCCCCCCCCAAGGCUGGUGUGAGUGUGCAAGUAUGUGUGC,0.496
UUUUGUACAGUGAACUGUGACUUUGUUGAUGUUUGCUUUAGCUAUAUUCAAGGCAGUGGUCUGUGGCUACAGGAAGCUGGUUCUACUGUCUGCUUAACAAACUGUCUUUG,0.406
GCCGACACCAGACGUGAUUAGCAGGCGCAGCAAAUUCAAUUUGUUAAAUGAAAUUGUAUUUUGCCCACGGCUGCUUCUGUUUGAUCCCUGGGGACAGAGGGGAGCAAGGG,0.448

# Block 4
# Target: Sal-like protein 4, full length isoform B (SALL4, Homo sapiens, UniProt Q9UJQ4-2, residues 1-616)
# Method: universal PBM
# Form: double-stranded DNA, one strand shown
# Sample: in vitro
# Tested at: not given
# Setting: 8-mer, flanks averaged, mean of replicates
# Direction: higher = stronger binding
# Construct (chain): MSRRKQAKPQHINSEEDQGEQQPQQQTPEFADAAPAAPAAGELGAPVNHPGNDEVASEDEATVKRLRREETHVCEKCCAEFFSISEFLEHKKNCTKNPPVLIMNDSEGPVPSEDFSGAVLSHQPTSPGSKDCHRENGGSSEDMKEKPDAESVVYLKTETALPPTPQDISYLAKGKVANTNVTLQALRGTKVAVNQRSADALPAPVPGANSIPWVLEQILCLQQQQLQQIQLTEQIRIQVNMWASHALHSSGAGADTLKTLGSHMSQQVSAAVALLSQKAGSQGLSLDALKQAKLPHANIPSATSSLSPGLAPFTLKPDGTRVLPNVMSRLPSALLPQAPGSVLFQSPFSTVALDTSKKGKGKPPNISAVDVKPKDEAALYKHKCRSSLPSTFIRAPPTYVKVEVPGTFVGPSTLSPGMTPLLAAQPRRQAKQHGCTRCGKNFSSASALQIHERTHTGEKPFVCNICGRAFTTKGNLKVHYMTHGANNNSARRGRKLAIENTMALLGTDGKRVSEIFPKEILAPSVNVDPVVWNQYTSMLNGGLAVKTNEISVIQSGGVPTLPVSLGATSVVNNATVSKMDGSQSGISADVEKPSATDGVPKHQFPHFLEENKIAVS
Oligonucleotide,E-score
ACGGGGGC,-0.326
AGACATTC,0.188
GTCCGTGA,-0.179
GAGACAGA,0.0362
ATCGCTTC,0.0518
ATGGTCCG,-0.156
CAACATCG,0.0786
ATCCGCAC,-0.0762
ACTCTGAT,0.0162
CACCATAC,-0.0553
TCGGCCAA,-0.155
AAGCGCAA,0.031
GTAGGCGA,-0.102
CCGAACCC,-0.331
ATAAAGGG,0.161
ATTTGTCG,0.14
CTCATAAA,0.263
CTCCCAAA,0.042
AAGCCAAC,0.0856
AGTCGCTG,-0.301
GCCCAAAA,-0.0107
AGCTTCCG,-0.25

# Excerpt of the above (block 1):
Oligonucleotide,log fluorescence
GACGGACTGAGTATCGAGACGTGCTAG,1.3 z-score
TATGTTGTCCAGGCTGGTCTCGTGCTA,-0.159 z-score
TTAGGTATCGGACTGGGTTTGTGCTAG,1.5 z-score
CACTCTCTGCTTGTATCTGGGTGCTAG,0.598 z-score
ACTTGTATTTGTCCCTATTTGTGCTAG,0.484 z-score
